Published values pooled from the literature.
Numbered parts are unrelated; each lists some results of a single study. Substitutions count along the parent as printed.
Chain of UniProt Q9NPD8 (whole entry, looked up): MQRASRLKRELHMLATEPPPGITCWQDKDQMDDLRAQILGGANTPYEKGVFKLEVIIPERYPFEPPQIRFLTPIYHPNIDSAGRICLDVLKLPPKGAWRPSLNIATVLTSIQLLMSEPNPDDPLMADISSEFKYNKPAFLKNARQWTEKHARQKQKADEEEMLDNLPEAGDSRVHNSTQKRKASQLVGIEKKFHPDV
Chain of UniProt P68036 (whole entry, looked up): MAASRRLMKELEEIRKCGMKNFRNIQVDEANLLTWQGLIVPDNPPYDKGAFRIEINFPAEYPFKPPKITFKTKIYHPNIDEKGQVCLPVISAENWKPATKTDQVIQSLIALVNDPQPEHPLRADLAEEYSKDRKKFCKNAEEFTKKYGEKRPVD
Chain of UniProt Q7Z7E8 (whole entry, looked up): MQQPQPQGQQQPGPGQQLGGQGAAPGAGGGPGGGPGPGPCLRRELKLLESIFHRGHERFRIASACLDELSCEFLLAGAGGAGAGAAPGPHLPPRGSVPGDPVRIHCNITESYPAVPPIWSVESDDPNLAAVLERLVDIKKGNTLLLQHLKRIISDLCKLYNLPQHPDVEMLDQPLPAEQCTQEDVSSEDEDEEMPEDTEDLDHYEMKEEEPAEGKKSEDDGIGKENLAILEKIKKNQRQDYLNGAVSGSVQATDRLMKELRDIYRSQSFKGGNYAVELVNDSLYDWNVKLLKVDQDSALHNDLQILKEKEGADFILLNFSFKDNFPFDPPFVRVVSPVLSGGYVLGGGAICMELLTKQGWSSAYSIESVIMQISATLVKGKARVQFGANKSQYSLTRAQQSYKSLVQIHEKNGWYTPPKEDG
Chain of UniProt Q8N2K1 (whole entry, looked up): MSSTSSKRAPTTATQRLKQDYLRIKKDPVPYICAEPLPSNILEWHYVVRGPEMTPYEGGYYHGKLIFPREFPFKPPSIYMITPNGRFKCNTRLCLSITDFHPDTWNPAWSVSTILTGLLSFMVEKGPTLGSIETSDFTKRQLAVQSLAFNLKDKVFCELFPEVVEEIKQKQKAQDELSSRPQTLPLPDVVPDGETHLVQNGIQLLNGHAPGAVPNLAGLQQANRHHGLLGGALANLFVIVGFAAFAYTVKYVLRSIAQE
Chain of UniProt P51668 (whole entry, looked up): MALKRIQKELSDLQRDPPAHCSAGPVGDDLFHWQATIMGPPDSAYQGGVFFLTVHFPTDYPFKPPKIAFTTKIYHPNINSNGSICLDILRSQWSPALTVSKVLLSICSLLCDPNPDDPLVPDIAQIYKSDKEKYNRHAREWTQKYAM
Chain of UniProt Q9H832 (whole entry, looked up): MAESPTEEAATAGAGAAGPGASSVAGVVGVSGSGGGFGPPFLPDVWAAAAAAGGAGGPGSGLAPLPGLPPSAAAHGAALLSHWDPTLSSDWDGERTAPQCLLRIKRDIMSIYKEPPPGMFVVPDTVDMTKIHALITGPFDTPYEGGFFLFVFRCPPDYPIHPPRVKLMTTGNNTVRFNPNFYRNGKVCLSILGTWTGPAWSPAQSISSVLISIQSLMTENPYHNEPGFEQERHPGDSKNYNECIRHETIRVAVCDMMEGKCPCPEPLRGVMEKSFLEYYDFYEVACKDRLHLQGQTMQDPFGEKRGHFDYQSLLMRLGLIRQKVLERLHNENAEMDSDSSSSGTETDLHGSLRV
Chain of UniProt Q9Y385 (whole entry, looked up): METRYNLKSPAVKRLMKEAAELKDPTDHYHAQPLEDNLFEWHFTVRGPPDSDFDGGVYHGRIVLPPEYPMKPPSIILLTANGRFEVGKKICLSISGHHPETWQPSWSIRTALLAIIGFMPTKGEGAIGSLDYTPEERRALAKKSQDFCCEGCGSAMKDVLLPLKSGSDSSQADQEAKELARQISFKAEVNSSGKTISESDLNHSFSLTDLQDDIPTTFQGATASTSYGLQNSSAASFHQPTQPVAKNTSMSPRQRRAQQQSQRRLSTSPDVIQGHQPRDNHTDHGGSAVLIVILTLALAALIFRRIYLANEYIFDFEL

Sample 1
Target: Ras GTPase-activating protein-binding protein 1, C-terminal RGG region (G3BP1, Homo sapiens, UniProt Q13283)
Chain of UniProt Q13283 (whole entry, looked up): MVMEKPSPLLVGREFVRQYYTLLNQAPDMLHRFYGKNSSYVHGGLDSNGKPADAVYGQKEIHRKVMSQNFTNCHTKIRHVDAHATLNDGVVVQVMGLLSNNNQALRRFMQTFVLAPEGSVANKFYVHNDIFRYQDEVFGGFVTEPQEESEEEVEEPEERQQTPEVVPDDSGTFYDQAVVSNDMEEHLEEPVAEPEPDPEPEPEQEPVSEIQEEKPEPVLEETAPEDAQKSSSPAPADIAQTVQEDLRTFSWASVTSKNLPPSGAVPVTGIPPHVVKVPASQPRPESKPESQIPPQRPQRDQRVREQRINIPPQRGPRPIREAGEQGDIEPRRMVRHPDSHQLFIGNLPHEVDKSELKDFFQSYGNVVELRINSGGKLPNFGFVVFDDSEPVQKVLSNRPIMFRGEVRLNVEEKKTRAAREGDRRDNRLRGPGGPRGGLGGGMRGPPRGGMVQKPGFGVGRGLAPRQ
Technique: RNA Bind-n-Seq
Molecule type: RNA
Sample: in vitro
Concentration: 1 µM
Notes: whole 134-nt RNA, ends assumed
Together with: 150 mM KCl
Relative to: input library
Reading: higher = stronger binding
`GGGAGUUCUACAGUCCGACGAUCCUCAAGUCCUGUGCUACACAUCGUAUGUACCGAAUCGGGGAGGGAGGGAGGGGAAAGUAUUAUGUUACGCCGUUCGGAUCUGCACUUCCAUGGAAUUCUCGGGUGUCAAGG` has a log2 enrichment of 2.76.
For `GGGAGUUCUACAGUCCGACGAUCACCAUGCAGGUGGGCAUCUUUGGGAAGUGGGGCAAGGGGGGGAUAGGGAGGGGGGUAACACUUUGGGAACAGGUGGUCCCAGGUCAUUUCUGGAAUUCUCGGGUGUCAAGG`, the log2 enrichment was 2.04.
`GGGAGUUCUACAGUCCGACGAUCUACUCAGCACAGAAAUUCAGGAGACACAGACAAGUUCUUCCACGAUGUCGUACAGACGAGAACUAGAGAAAUACCGUGACCUGGAUGAAGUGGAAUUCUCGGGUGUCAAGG` has a log2 enrichment of -0.174.
`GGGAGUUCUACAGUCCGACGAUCUAACUUUAGAGGAGGAUCUGAUGGAUAUGGCAGUGGACGUGGAUUUGGGGAUGGCUAUAAUGGAUAUGGAGGAGGACCUGGAGGUGGCAAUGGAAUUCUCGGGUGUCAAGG` has a log2 enrichment of -0.746.
For `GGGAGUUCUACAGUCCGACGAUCUCCUGUGCUACACAUCGUAUGUACCGAAUCGGGAAAAAAAGGGUUUGGGAAAAAAAGGGAAAGUAUUAUGUUACGCCGUUCGGAUCUGCAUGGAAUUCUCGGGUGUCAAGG`, the log2 enrichment was -0.934.
For `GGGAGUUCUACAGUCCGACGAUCUGGCCCUGGUGGCAUGCGGGGAGGAAGAGGUGGCCUCAUGGAUCGUUGUGGUCCCGGUGGAAUGUUCAGAGGUGGCCGUGGUGGAGACAGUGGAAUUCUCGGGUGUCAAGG`, the log2 enrichment was 2.44.
The log2 enrichment of `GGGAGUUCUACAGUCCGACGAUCGCAGGAAGUAAAAACAAAUGGAAAUGCUUCGGAUAGUGGCAGGGGUGGGGGUUGCUAAGGAAAGGGUGGGAUGGGAGUAGGUAAAGAGUUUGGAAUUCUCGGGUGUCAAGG` is reported as 1.79.
With `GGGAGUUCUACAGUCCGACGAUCAAGUCCUGUGCUACACAUCGUAUGUACCGAAUCGGGAAAAGGAAAAGGGGAAAAGGAAAGUAUUAUGUUACGCCGUUCGGAUCUGCACUUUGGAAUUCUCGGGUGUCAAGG` the log2 enrichment was -1.7.
With `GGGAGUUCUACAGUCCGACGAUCAGAGAAAAGGAACAGUUCCGUAAGCUCUUUAUUGGUGGCUUAAGCUUUGAAACCACAGAAGAAAGUUUGAGGAACUACUACGAACAAUGGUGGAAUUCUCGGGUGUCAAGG` the log2 enrichment was -2.48.

Sample 2
Molecule: LKQVSIRENCCSLCCDEVADTQLKPCGHSDLCMDCALQLETCPLCRKEIVSRIRQI (RSPRY1 RING domain (UniProt Q96DX4))
Technique: yeast two-hybrid
Sample: yeast
Notes: mostly zero background
Relative to: not given
Reading: higher = stronger interaction
It gave 0 for “lacZ reporter activity” (UBE2T UBC core domain (UniProt Q9NPD8)).
It gave 0 for “lacZ reporter activity” (UBE2Q1 UBC core domain (UniProt Q7Z7E8)).
For UBE2J1 UBC core domain (UniProt Q9Y385): “lacZ reporter activity” read 0.
The “lacZ reporter activity” was 0 (UBE2J2 UBC core domain (UniProt Q8N2K1)).
It gave 0 for “lacZ reporter activity” (UBE2D1 UBC core domain (UniProt P51668)).
UBE2L3 UBC core domain (UniProt P68036) — “lacZ reporter activity”: 0.
The “lacZ reporter activity” was 0 (UBE2Z UBC core domain (UniProt Q9H832)).

Sample 3
Target: ABI1, truncated, D143A, DHFR fusion (Arabidopsis thaliana, UniProt P49597)
Technique: DHFR PCA, dose-response
Sample: yeast
Notes: Hill fit, not affinity, not high confidence
Together with: (+)-ABA, dose series
Reading: lower = more sensitive
Starting sequence: PYL1, truncated, DHFR fusion (Arabidopsis thaliana, UniProt Q8VZS8); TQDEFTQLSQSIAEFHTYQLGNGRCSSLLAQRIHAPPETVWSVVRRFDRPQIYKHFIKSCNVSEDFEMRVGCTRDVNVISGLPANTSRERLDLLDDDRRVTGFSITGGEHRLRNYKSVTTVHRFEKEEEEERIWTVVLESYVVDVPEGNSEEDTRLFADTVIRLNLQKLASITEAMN
With `V161D` the ABA EC50 was 2.68 µM.
`D159F` has an ABA EC50 of 670 µM.
The ABA EC50 of `L166T` is reported as 3.87 µM.
For `F103Q`, the ABA EC50 was 1540 µM.
`Y141H` gave an ABA EC50 of 88.1 µM.
The ABA EC50 of `P50G` is reported as 290 µM.
`S140A` has an ABA EC50 of 855 µM.
The ABA EC50 of `N149W` is reported as 2.1 µM.
`V161W` has an ABA EC50 of 1.47 µM.
The ABA EC50 of `V143N` is reported as 14.1 µM.
The ABA EC50 of `V44D` is reported as 3.56 µM.
With `L169D` the ABA EC50 was 0.0549 µM.
The ABA EC50 of `G102D` is reported as 0.835 µM.
The ABA EC50 of `N149E` is reported as 226 µM.
The ABA EC50 of `L82D` is reported as 1.41 µM.
The ABA EC50 of `F103D` is reported as 14 µM.
`V100D` has an ABA EC50 of 787 µM.
With `V161H` the ABA EC50 was 1.39 µM.
`L166R` gave an ABA EC50 of 0.113 µM.
`Q2W` gave an ABA EC50 of 19.8 µM.
`E89S` gave an ABA EC50 of 1730 µM.
With `I33P` the ABA EC50 was 1050 µM.
With `A158I` the ABA EC50 was 0.362 µM.
`K54A` gave an ABA EC50 of 1.94 µM.

Sample 4
Target: RNA binding protein fox-1 homolog 2, RRM domain, GST-SBP tag (RBFOX2, Homo sapiens, UniProt O43251-10, residues 100-194)
Technique: RNA Bind-n-Seq
Molecule type: RNA
Sample: in vitro
Concentration: 365 nM
Notes: natural RNA segment, single round, ends assumed
Relative to: no-protein control
Reading: higher = stronger binding
Residues (chain): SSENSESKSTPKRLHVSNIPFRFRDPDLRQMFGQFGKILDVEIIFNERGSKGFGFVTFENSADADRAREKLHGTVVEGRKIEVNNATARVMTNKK
Under “RBNS enrichment (R)”, `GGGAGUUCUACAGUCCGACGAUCUCGCUGACCCAGAGGCGCUGUGCCUGCAUAUCAUCCACCACCACCCUAGCCCAGCCUUCCCACUGCCCCAGGAAAAGCUCUUCUCCUGGCCACCUCUGCCCCCCAGCACCUGGAAUUCUCGGGUGCCAA` is recorded as 0.853.
Under “RBNS enrichment (R)”, `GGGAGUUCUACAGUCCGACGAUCGCCAUGCUUGCCUAUUUGCUGUAUACAUGUAAUGAAAUUGUAGAUAAAGUGUAGUGCAUUGAAACAAAUGAACAAAAAAGUAGAUACUUUUACUAUACAAGGGUGCUGGUUGGAAUUCUCGGGUGCCAA` is recorded as 0.715.
For `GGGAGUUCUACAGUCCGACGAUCGUUAACUCCUAACACAUAUUCUCUUAUGUCUCAGUAAAGUUUCAUUUGAUAAGUUGUUGAGAUUCUGUUAUUUGAUAAUAUUCUUCGGCUGUCCAUCCAGCAUCUUAAUCUGGAAUUCUCGGGUGCCAA`, “RBNS enrichment (R)” read 0.68.
`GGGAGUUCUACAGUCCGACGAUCUAUAGGACUUUAAAGCUCCUUUUGGCAUAGGGAAGUCACGAAGGAUUGCUUGACAUCAGGAGACUUGGGGGGGAUUGUAGCAGACGUCUGGGCUUUUCCCCACCCAGAGAUGGAAUUCUCGGGUGCCAA` — result for “RBNS enrichment (R)”: 1.61.
Under “RBNS enrichment (R)”, `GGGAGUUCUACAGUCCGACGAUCCUUCUAAAAUAAAAUCUCUAGUCCAGACAUAUUUGACAGUAUUGUUUGUCUGAAUGUGAAAUAUCCCCCAUUUUAUCCCAUAAAUCAUUUGUUUUCCAAUGAUGUGUAUUUGGAAUUCUCGGGUGCCAA` is recorded as 0.467.
`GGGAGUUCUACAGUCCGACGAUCCCCCGCCAUGCUGCUCUGCUUGUCACAGACGUCCUGUGGGUUGGUUGUGACAGCAUCUUCACCACUUUGGGGACCAUCCAGAGUGGGGGAGUGGGGGAGACUUCACCCUGUGGAAUUCUCGGGUGCCAA`: “RBNS enrichment (R)” 0.244.
`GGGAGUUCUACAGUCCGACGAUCUAGGUUUUGUUUUUCCUUGAGAGCCUUUUUUUAGGCCCCACAGACAGUGGUGGGUGGGGAGGCGAUAGGAAACACAUUCCCCAGUGUGCAUUUAACAUUCAUAGCCUACAUGGAAUUCUCGGGUGCCAA`: “RBNS enrichment (R)” 0.49.
`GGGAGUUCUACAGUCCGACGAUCAAAACAGUGAAUUAGCUGAAAAGAAAUGGAGAAGUGUCUUGGAGAUUUACUGAAAUAGCUAAUUGUCAGGUGCUUAAGCUUUUGUGCAGUAAGCCUAAAAGUUAGCAGAAUGGAAUUCUCGGGUGCCAA` — result for “RBNS enrichment (R)”: 0.645.

Sample 5
Target: CCNE1, cyclin fold, Cln2 fusion (human)
Technique: yeast growth competition, sequencing
Sample: yeast
Notes: weak parent motif
Relative to: not given
Reading: higher = stronger binding
Starting sequence: USP37 docking peptide (human); PSAKRSLGFLPQP
Under “normalised enrichment score”, `PSAKRSLGALPQP [F9A]` is recorded as 0.0162.
For `ASAKRSLGFLPQP [P1A]`, “normalised enrichment score” read 0.0077.
`PSAARSLGFLPQP [K4A]` — result for “normalised enrichment score”: 0.377.
`PSAKRSLGFLAQP [P11A]` — result for “normalised enrichment score”: 0.0245.
`PSAKRSLGFLPAP [Q12A]`: “normalised enrichment score” 0.615.
Under “normalised enrichment score”, `PSAKRSLGFLPQA [P13A]` is recorded as 0.127.

Excerpt of the above (sample 3):
`D159F` has an ABA EC50 of 670 µM.
For `F103Q`, the ABA EC50 was 1540 µM.
The ABA EC50 of `N149E` is reported as 226 µM.
With `I33P` the ABA EC50 was 1050 µM.
The ABA EC50 of `L166T` is reported as 3.87 µM.
The ABA EC50 of `L82D` is reported as 1.41 µM.
